Results pooled from the literature.
Each numbered part is a random draw from the data of one study; scales do not carry over between parts.

Study 1
Target: Histone acetyltransferase KAT6A, winged helix 2, GST fusion (KAT6A, Homo sapiens, UniProt Q92794, residues 85-181)
Method: protein binding microarray
Molecule type: double-stranded DNA, one strand shown
Medium: in vitro
Tested at: not given
Setting: 8-mer, flanks averaged, mean of 2 arrays, mostly near background
Reference: not given
Direction: higher = stronger binding
Measurement: E-score
Residues (chain): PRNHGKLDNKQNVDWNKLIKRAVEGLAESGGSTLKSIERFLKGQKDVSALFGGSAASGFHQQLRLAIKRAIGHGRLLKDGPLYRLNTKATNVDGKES
Strand = CCCGAAAG; value = 0.0262
Strand = AGTTCCCG; value = 0.0521
Strand = AAAGACGC; value = -0.0485
Strand = ATGGGCAC; value = 0.0189
Strand = TGGGTAAA; value = -0.0241
Strand = AAGACTCA; value = -0.238
Strand = AAAACACG; value = 0.18
Strand = AAATACGT; value = -0.224
Strand = ACCCTCAA; value = 0.00587
Strand = ACGAGGCA; value = -0.0216
Strand = GGATAGAA; value = 0.122
Strand = ATAAACGC; value = -0.152
Strand = AACTGGAC; value = -0.094
Strand = CACATGGC; value = 0.0363
Strand = ACATTGCT; value = -0.0709
Strand = AGTAAAAG; value = 0.16
Strand = CCTGGCGC; value = 0.244
Strand = CACACCGC; value = 0.0942
Strand = AAAGTCCC; value = -0.0702
Strand = GCTATAAC; value = -0.171
Strand = GGCCCCTA; value = -0.144
Strand = TAGCTAAA; value = 0.0576
Strand = ATCCCGTC; value = 0.0233
Strand = CCAGGTCA; value = -0.103
Strand = GCGCAACC; value = 0.097

Study 2
Target: Ras GTPase-activating protein-binding protein 1, RRM domain (G3BP1, Homo sapiens, UniProt Q13283)
Chain of UniProt Q13283 (whole entry, looked up): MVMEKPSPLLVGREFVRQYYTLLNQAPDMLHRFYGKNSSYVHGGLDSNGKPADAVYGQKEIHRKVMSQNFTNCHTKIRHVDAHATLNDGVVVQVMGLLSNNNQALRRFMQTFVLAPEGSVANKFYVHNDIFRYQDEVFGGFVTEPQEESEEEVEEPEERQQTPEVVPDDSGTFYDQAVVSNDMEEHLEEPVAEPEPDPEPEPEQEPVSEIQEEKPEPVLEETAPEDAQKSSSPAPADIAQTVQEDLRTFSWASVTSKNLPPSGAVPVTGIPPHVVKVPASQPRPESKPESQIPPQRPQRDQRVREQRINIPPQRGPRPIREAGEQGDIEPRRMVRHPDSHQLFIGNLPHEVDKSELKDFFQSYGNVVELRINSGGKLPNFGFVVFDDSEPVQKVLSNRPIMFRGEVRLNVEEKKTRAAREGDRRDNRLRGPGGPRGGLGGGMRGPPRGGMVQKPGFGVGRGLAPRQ
Method: RNA Bind-n-Seq
Molecule type: RNA
Medium: in vitro
Tested at: 1 µM
Setting: whole 134-nt RNA, ends assumed
With: 150 mM KCl
Reference: input library
Direction: higher = stronger binding
Measurement: log2 enrichment
Constant ends, left off below: GGGAGUUCUACAGUCCGACGAUC … UGGAAUUCUCGGGUGUCAAGG
Strand = UUCUCUCAUUUCUUCUGAAAUACAGGGCAAAUUGGAUCAAGGCAGUUCAGAUGUGUAGCAAACCCAGAGAAUUUGCAUUGGCUUUAGCCA; value = 1.14
Strand = UAACUUUAGGGGAGGAUCUGAUGGAUAUGGCAGUGGACGUGGAUUUGGGGAUGGCUAUAAUGGGUAUGGAGGAGGACCUGGAGGUGGCAA; value = -0.818
Strand = AGUCCUGUGCUACACAUCGUAUGUACCGAAUCGGGUUUUUGGGUUUUUGGGUUUUUGGAAAGUAUUAUGUUACGCCGUUCGGAUCUGCAC; value = -0.137
Strand = UGGGAGGUGGAUUUUGUUUAUUUUUUUAGCUCAUUUCCAGGGGUGGGAAUUUUCUUUUAAUAUGUGUCAUGAAUAAAGUUGUUUUUGAAA; value = 1.77
Strand = GCAGGAAGUAAAAACAAAUGGAAAUGCUUCGGAUAGUGGCAGGGGUGGGGGUUGCUAAGGAAAGGUUGGGAUGGGAGUGGGUAAAGAGUU; value = 1.19
Strand = GCAGGAAGUAAAAACAAAUGGAAAUGCUUCGGAUAGUGGCAGGGGUGGGGGUUGCUAAGGAAAGGGUGGGAUGGGAGUGGGUAAAGAGUG; value = 0.757
Strand = CUGUGCUACACAUCGUAUGUACCGAAUCGGGGAAAAAGGGGAAAAAAAGGGGUUUUUGGGGAAAGUAUUAUGUUACGCCGUUCGGAUCUG; value = 0.958
Strand = UGGGAGGUGGAUUUUGUUUAUUUUUUUAGCUCAUUUCCAGGGGUGGGAAUUUUUUUUUUAUAUGUGUCAUGAAUAAAGUUGUUUUUGAAA; value = 1.84
Strand = UGGAGCACAGGGCGAGCUCUCCUCCGCCCUGCAGCCUCAGGUAAGGAUCCGGACCUUCACUGCUGCCCCAACUGGGGCUCCUCAGCUCGG; value = -0.62

Study 3
Target: Sal-like protein 4, full length isoform A (SALL4, Homo sapiens, UniProt Q9UJQ4, residues 1-1053)
Chain of UniProt Q9UJQ4 (whole entry, looked up): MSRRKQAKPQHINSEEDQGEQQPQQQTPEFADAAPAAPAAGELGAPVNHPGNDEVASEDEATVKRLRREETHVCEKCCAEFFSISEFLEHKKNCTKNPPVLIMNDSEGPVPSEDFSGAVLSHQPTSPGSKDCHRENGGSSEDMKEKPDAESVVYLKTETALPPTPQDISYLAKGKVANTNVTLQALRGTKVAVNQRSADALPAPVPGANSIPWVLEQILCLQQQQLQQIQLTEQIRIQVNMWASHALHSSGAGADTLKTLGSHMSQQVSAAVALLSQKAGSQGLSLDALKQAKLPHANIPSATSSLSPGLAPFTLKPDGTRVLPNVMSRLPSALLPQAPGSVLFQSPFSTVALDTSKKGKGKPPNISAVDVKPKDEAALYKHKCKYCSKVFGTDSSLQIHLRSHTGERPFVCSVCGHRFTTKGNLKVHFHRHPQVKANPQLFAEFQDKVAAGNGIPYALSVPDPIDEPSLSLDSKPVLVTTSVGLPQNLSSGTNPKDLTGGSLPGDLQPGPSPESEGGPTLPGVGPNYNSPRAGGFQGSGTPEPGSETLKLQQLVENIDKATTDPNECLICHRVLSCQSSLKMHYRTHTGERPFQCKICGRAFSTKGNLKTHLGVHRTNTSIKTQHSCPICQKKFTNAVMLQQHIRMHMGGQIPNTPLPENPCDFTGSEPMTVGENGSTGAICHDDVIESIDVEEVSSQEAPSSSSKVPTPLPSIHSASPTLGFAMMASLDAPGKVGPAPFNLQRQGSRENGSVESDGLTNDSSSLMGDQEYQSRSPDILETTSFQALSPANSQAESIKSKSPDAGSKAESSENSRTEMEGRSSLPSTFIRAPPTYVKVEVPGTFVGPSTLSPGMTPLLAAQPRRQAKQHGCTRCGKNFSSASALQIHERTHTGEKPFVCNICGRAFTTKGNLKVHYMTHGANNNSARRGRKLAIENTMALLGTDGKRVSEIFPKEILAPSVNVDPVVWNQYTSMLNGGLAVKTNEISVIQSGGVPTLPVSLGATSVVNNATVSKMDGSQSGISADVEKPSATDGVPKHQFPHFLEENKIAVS
Method: universal PBM
Molecule type: double-stranded DNA, one strand shown
Medium: in vitro
Tested at: 600 nM
Setting: 8-mer, flanks averaged, mean of replicates
Direction: higher = stronger binding
Measurement: E-score
Strand = AATGGAAG; value = 0.0594
Strand = GCCTAAGC; value = -0.201
Strand = CAACGGGA; value = -0.134
Strand = GCCCGCAA; value = -0.185
Strand = AATACATT; value = 0.299
Strand = AACGTAGT; value = 0.142
Strand = CACACAAG; value = 0.101
Strand = ATGAGCCA; value = 0.0701
Strand = GAGCCCGC; value = -0.354
Strand = GTCGGCAC; value = -0.141
Strand = ATTTGCGC; value = 0.0118
Strand = AACTCTCT; value = -0.0463
Strand = CGAGCTAA; value = -0.188
Strand = CCGGGGAG; value = -0.33
Strand = CCTCGGAA; value = -0.103
Strand = AGGGGTTG; value = -0.082
Strand = ATGCATAG; value = 0.144
Strand = ACCAGTCG; value = -0.127
Strand = CCCGTTTC; value = -0.17
Strand = ATCTAAAG; value = 0.139

Study 4
Target: RNA binding protein fox-1 homolog 2, RRM domain, GST-SBP tag (RBFOX2, Homo sapiens, UniProt O43251-10, residues 100-194)
Method: RNA Bind-n-Seq
Molecule type: RNA
Medium: in vitro
Tested at: 365 nM
Setting: natural RNA segment, single round, ends assumed
Reference: no-protein control
Direction: higher = stronger binding
Measurement: RBNS enrichment (R)
Constant ends, left off below: GGGAGUUCUACAGUCCGACGAUC … UGGAAUUCUCGGGUGCCAA
Target sequence (chain): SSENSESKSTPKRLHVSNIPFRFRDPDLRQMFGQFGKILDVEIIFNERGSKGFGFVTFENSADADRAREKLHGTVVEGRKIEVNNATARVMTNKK
Strand = ACCCCUGCUGAGCGUGAUGGUCUAGCCUCCAUCAUGAAGAAGCUCUUGACCAAGUAUGACAACCUCUUUGAGACGUCCUUUCCCUACUCCAUGGGCUGGCAUGGGGCUCC; value = 0.544
Strand = GCCUCUUCCUUGAAGAACUGCAGGCCCUGGCCUCCCCUGCCACCAGGCCACCUCCCCAGCAUUCCAGCCCCUCUGGUCGCUCCUGCCCACGGAGUCGUGGGGUGUGCUGG; value = 0.455
Strand = AGGAACUUUCCUAAGAAACCGCUGAUAACCAGGACAAAACACAACCAAGGGUACACGCAGGCAUGCACGGGUUUCCUGCCCAGCGACGGCUUAAGCCAGCCCCCGACUGG; value = 0.808
Strand = CAUAUGUUGUGUUUGGUUCAAUUUUUUUUCCGUAAAUGUCUGCACUGAGGAUUUCUUUUUGGUUUGCCUUUUAUGUAAAUUUUUUACGUAGCUAUUUUUAUACACUGUAA; value = 1.02
Strand = UCCCCAAAUAAUGUUACACAUGGCAGUACUCAUGUUCCCCUUGAUUCCCAGGGACGUCGCGCCUUGUUUCUCCUCCCUCUCUGUGUCUGGGGAGGAGGAGCUGAGUCCUG; value = 3.08
Strand = CAUUUAAACUUUUUAAAAUACUUAUUAAAAAAUUUGUAUAAGCCACUUGUCUUGAAAACUGUGCAACUUUUUAAAGUAAAUUAUUAAGCAGACUGGAAAAGUGAUGUAUU; value = 3.53
Strand = UCAGCCCACCAGGGUCCAGGGAGAUGUUCGUUCUCGCUUUAAGUCAGGAGUCACAAAUGACUUUUUUUUUUCAAUUAAGGAAAAAGCUCCAUCUCUACCUUUAACAUCAC; value = 0.27
Strand = UUGUUCUUAUUUUAAAAUUAACACUAUGUGUUCAGUUUUCUUGUGGGCUUCUGAAAGUUGCCAUCUUCCCUCCGUGGAGCUCCAUUUGCUAUUUUCAUUAUACACUAUGA; value = 6.3
